Published values collected from several papers.
Every numbered part comes from another study and shows a few of its results, in no order.

Series 1
Target: Histone acetyltransferase KAT6A, winged helix 2, GST fusion (KAT6A, Homo sapiens, UniProt Q92794, residues 85-181)
Method: protein binding microarray
Form: double-stranded DNA, one strand shown
Medium: in vitro
Concentration: not given
Notes: 8-mer, flanks averaged, mean of 2 arrays, mostly near background
Relative to: not given
Direction: higher = stronger binding
Residues (chain): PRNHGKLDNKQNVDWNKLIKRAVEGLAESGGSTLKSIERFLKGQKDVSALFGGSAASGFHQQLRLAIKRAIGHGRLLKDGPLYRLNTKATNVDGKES
For `AATTTCCA`, the E-score was -0.122.
For `AGCCGGAA`, the E-score was 0.188.
`CTACGTGC` gave an E-score of -0.282.
For `GACAATCC`, the E-score was 0.0352.
The E-score of `CTAGGTCC` is reported as 0.0167.
`GAAAAAAC` has an E-score of 0.124.
`GATCGTCA` has an E-score of -0.108.
The E-score of `GCTTGGGA` is reported as 0.0683.
`ACGGGATA` has an E-score of -0.0842.
With `AGAAATCT` the E-score was 0.0201.
With `AGTTTTAC` the E-score was 0.0205.
`GTAGTGAA` has an E-score of -0.0532.
With `ACGGATAT` the E-score was 0.0619.
`ATGGGATC` gave an E-score of -0.0641.
`AGGGCCAG` gave an E-score of 0.052.
The E-score of `TTCGTCAA` is reported as 0.121.
For `CTCTTGCA`, the E-score was -0.0703.
With `ACGTACAG` the E-score was -0.222.
With `ACCTGGGC` the E-score was -0.0854.
For `ACGTCGGC`, the E-score was -0.0592.
The E-score of `TAAGCAGA` is reported as 0.0494.
`GCAGCAAC` gave an E-score of 0.267.

Series 2
Target: Fragile X messenger ribonucleoprotein 1, C-terminal low-complexity region (Fmr1, Mus musculus, UniProt P35922)
Method: RNA Bind-n-Seq
Form: RNA
Medium: in vitro
Concentration: 200 nM
Notes: whole 134-nt RNA, ends assumed
Together with: 150 mM LiCl
Relative to: input library
Direction: higher = stronger binding
Each molecule: 7-deaza-guanosine replaces G
With `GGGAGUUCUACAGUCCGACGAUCCAAGUCCUGUGCUACACAUCGUAUGUACCGAAUCGGCCCGGGCCCGGGCCCGGGGAAAGUAUUAUGUUACGCCGUUCGGAUCUGCACUUCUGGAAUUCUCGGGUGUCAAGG` the log2 enrichment was -2.96.
`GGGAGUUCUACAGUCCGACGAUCACCGUGCAGGUGGGCAUCUUUGGGAAGUGGGGCAAGGGGGGGAUAGGGAGGGGGGUAACACUUUGGGAACAGGUGGUCCCAGGUCGUUUCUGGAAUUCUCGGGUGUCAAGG` has a log2 enrichment of 1.31.
`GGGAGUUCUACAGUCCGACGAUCCACAGACAACACGCACCCACACAGACACAGAGGGAAAAGGUUGGGAUGGGGACAGGGUGCACAGCAGGGCGGGGUAGGACCCCAGCCCCUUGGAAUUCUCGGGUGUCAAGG` gave a log2 enrichment of -1.44.
`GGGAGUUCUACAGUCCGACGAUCCCUCAAGUCCUGUGCUACACAUCGUAUGUACCGAAUCGGGAGGAGGGGAGGGGAAAGUAUUAUGUUACGCCGUUCGGAUCUGCACUUCCAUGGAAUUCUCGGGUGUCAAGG` gave a log2 enrichment of -0.858.
`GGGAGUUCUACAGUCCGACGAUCUCCUGUGCUACACAUCGUAUGUACCGAAUCGGGGUUUUUUGGGGUUUUUUGGUUUUUUGGAAAGUAUUAUGUUACGCCGUUCGGAUCUGCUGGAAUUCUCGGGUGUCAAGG` gave a log2 enrichment of -0.179.
`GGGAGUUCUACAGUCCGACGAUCGUCCUGUGCUACACAUCGUAUGUACCGAAUCGGGUUUGGGUUUUUUUGGGAAAAAGGGAAAGUAUUAUGUUACGCCGUUCGGAUCUGCACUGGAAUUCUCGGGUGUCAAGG` has a log2 enrichment of -0.882.
`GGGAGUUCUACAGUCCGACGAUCUGGGCUGGAUGGCUCAGUUCCCCCAGACCUGGACUGGAAGGGCCAGCCACCUGCACCUCCUAAAAAGGGACUGCUGCAGAGACUCUUCAGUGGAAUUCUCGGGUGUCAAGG` gave a log2 enrichment of -0.468.
`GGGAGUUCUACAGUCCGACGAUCCCUCAAGUCCUGUGCUACACAUCGUAUGUACCGAAUCGGGAGGGGAGGGAGGAAAGUAUUAUGUUACGCCGUUCGGAUCUGCACUUCCAGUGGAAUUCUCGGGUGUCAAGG` has a log2 enrichment of -0.841.
With `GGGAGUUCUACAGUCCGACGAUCCACAGACAACACGCACCCACACAGACACAGAGGGAAGGGGUUUGGAUGGGGACAGGGUGCACAGCAGGGCGGGGUAGGACCCCAGCCCCUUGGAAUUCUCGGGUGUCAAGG` the log2 enrichment was -1.14.
The log2 enrichment of `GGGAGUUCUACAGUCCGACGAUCCUGUGCUACACAUCGUAUGUACCGAAUCGGGGCCCCCCCGGGCCCCCCCGGCCCCCCCGGGGAAAGUAUUAUGUUACGCCGUUCGGAUCUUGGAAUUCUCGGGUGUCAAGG` is reported as 0.232.
`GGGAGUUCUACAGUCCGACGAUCCUCAAGUCCUGUGCUACACAUCGUAUGUACCGAAUCGGGAGGGAAAGGGUGGGAAAGUAUUAUGUUACGCCGUUCGGAUCUGCACUUCCAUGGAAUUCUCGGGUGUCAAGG` has a log2 enrichment of -0.8.

Series 3
Target: Interferon regulatory factor 5, full length, phosphomimetic (IRF5, Homo sapiens, UniProt Q13568-2, residues 1-514, S451D/S453D/S456D/S462D)
Method: protein-binding microarray
Form: double-stranded DNA, one strand shown
Medium: in vitro
Concentration: 940 nM top
Notes: 60-bp whole probe
Together with: salmon DNA 0.4 mg/ml
Relative to: random background probes
Direction: higher = stronger binding
Shared flanks, not repeated: GCCTAGCAC … GTCTTGATTCGCTTGACGCTGCTG
`TCACATATGCTTTTTAGACTGTGCTAG` — result for “fitted relative affinity”: 0.337 z-score.
`GACGGGCTGCTTTTCCTGACGTGCTAG` — result for “fitted relative affinity”: -0.496 z-score.
Under “fitted relative affinity”, `GACGTACTGGACACTGGGGACGTGCTA` is recorded as -0.503 z-score.
`TCACCTCTCATTCCAATACTGTGCTAG`: “fitted relative affinity” 1.66 z-score.
`GACGGTCTCCTACTGCGGACGTGCTAG`: “fitted relative affinity” 0.118 z-score.
`GATGGTATCGGTCTCGGGACGTGCTAG` — result for “fitted relative affinity”: 9.72 z-score.
`TTAGGTAACGGTATCGGTTAGTGCTAG`: “fitted relative affinity” 4.35 z-score.
`GACGATTTCGGGTATCGAGACGTGCTA`: “fitted relative affinity” 1.57 z-score.
`TCATTTTTGTAATCGAAAACTGTGCTA`: “fitted relative affinity” 0.274 z-score.
Under “fitted relative affinity”, `GACGGTCGCGGTATCGGGACGTGCTAG` is recorded as 1.01 z-score.
`TTAGATTTCAGTTTCGATCAGTGCTAG`: “fitted relative affinity” 8.98 z-score.
`TTAGGTTTCCGTCTCCTTTAGTGCTAG` — result for “fitted relative affinity”: 3.02 z-score.
`GACGGTTTGCTTTCCCTGACGTGCTAG` — result for “fitted relative affinity”: 0.51 z-score.
`GACGGTATCGGAGTGGGGACGTGCTAG` — result for “fitted relative affinity”: 2.03 z-score.
`TCATGTGTGTGTTTGTGACTGTGCTAG` — result for “fitted relative affinity”: 0.0382 z-score.
`TTTTTTTTTTGTATTTTTGAGTGCTAG`: “fitted relative affinity” 1.42 z-score.
`GACGAACTGGGGGCTGGAGACGTGCTA` — result for “fitted relative affinity”: 0.766 z-score.
`CTAGATATCAGTATCGATTAGTGCTAG` — result for “fitted relative affinity”: 4.81 z-score.
`TTAGATCTCAGTCTCTATTAGTGCTAG` — result for “fitted relative affinity”: 0.743 z-score.
Under “fitted relative affinity”, `TACGGTTTCGGTTTCGGGACGTGCTAG` is recorded as 12.2 z-score.
Under “fitted relative affinity”, `GACGATCTCCGACTGGAGACGTGCTAG` is recorded as -0.565 z-score.
`GACGGTTCCGGTTTCGGGACGTGCTAG`: “fitted relative affinity” 5.92 z-score.
`TTAGGTATCGACCCTGGGTTAGTGCTA`: “fitted relative affinity” 4.32 z-score.
Under “fitted relative affinity”, `TTCTACTTCTCTTTTTGCTTGTGCTAG` is recorded as 2.26 z-score.
Under “fitted relative affinity”, `TTAGAACAGAGTCTCGATTAGTGCTAG` is recorded as 1.58 z-score.

Series 4
Target: RNA binding protein fox-1 homolog 2, RRM domain, GST-SBP tag (RBFOX2, Homo sapiens, UniProt O43251-10, residues 100-194)
Method: RNA Bind-n-Seq
Form: RNA
Medium: in vitro
Concentration: 365 nM
Notes: natural RNA segment, single round, ends assumed
Relative to: no-protein control
Direction: higher = stronger binding
Target sequence (chain): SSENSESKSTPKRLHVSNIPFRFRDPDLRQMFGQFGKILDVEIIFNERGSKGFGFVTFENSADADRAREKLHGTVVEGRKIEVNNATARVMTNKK
`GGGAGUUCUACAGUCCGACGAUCAAUGCAUAAUAAAUGCUUUGUGCUUCUGACUAUCAAUACCUAAAGAAAGUGCAUCAGUGAAGAGAUGCAAGACUUUCAACUGACUGGCAAAAAGCAAGCUUUAGCUUGUCUGGAAUUCUCGGGUGCCAA` — result for “RBNS enrichment (R)”: 0.2.
`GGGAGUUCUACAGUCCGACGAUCCUUUUGCAGUACUUCUCCAUGCCUUCCCUGCUACAAGUGUUUUUAGAUGUUAUUACUGUACUUUCCCCAAAUUCUGCUCCUGUACUUGCAAACUGAAGGUAACUAUACCUUGGAAUUCUCGGGUGCCAA` — result for “RBNS enrichment (R)”: 1.01.
For `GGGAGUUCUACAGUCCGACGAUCCUCAAUGGGGAGGGGCUGGAGACAGGCUCAGUAGACUAAGGGACUCCUUUAAAUUUCUUUUUGCUGGGACACUGGGUGAACUUGCGAUUGCUUUGACUAAAUCUGCUCAGUGGAAUUCUCGGGUGCCAA`, “RBNS enrichment (R)” read 0.62.
For `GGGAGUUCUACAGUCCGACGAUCUUGUGUUUAUGUCAUGGGUCAUUUUUUUUUAGUUACAGAAGCAGUUGUGUUAAUAUUUAGAAGAAGAUGUAUAUCUUCCAGAUUUUGUUAUAUAUUUGGCAUAAAAUACGUGGAAUUCUCGGGUGCCAA`, “RBNS enrichment (R)” read 0.818.
Under “RBNS enrichment (R)”, `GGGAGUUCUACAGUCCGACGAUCGAAAUGCUGUCUCUUGUGCAUUUUACUAAUUUCCCCAUUCUUAGGGUAGCAGGGUGGGGGUGUAUAGGGUCUUUUUGAAGCAGUUUUGGAUAGGUUUGCAAUAUGUGGGAUGGAAUUCUCGGGUGCCAA` is recorded as 25.7.
Under “RBNS enrichment (R)”, `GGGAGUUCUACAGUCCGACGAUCCGCUGCGUGCCAUCACUCAACCAUAACACUUGAUGCCGUUUCUUUCAAUAUUUAUUUCCAGAGUCCGGAGGCAGCAGACACGCCCUCUUAGUAGGGACUUAAUGGGCCGGUGGAAUUCUCGGGUGCCAA` is recorded as 0.282.
`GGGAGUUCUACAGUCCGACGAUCUGUUUUCAGCUACUUGCAAAUCUUCCUGGUCGAAAGUUAGUAGGAUAUGCCUGCUCUUUGGCCUGAUGACGAAUUUCAACUUUGAAACAUUUUCUUUUGUCCUCCCCAAAUGGAAUUCUCGGGUGCCAA`: “RBNS enrichment (R)” 0.3.
For `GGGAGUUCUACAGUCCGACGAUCAAUUUCCUUAUACUGUGGCUUGGUAUUAUUCAAGAUUAGCUAUUUCGCUGGUAUUACAUCUUUUUAAAAGCCUAUUAUAACAUGGUUAGCCUAUAAGGCAGUGUUGGUCCUGGAAUUCUCGGGUGCCAA`, “RBNS enrichment (R)” read 0.336.
`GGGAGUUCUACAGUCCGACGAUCUGGUGCCCGGAGAUUGGACGGCCUGAUGCUCCCUCCCCUGCCCUGGUCCAGGGAAGCUGGCCGAGGGUCCUGGCUCCUGAGGGGCAUCUGCCCCUCCCCCAACCCCCACCUGGAAUUCUCGGGUGCCAA` — result for “RBNS enrichment (R)”: 0.581.

Some of these lines once more (series 1):
The E-score of `GCTTGGGA` is reported as 0.0683.
`ACGGGATA` has an E-score of -0.0842.
With `AGAAATCT` the E-score was 0.0201.
With `AGTTTTAC` the E-score was 0.0205.
`GTAGTGAA` has an E-score of -0.0532.
With `ACGGATAT` the E-score was 0.0619.
`ATGGGATC` gave an E-score of -0.0641.
`AGGGCCAG` gave an E-score of 0.052.
The E-score of `TTCGTCAA` is reported as 0.121.
